Measurements pooled from the literature.
A part holds a random share of what one study measured. Substitutions count along the parent as printed.

Series 1 — method: EMSA with sequencing; form: double-stranded DNA, one strand shown; medium: in vitro; tested at: 10 and 20 nM; relative to: negative control set to 0; reading: higher = stronger binding
Target: Hepatocyte nuclear factor 3-alpha (Foxa1, Mus musculus, UniProt P35582, residues 1-468, full length assumed)
Chain of UniProt P35582 (whole entry, looked up): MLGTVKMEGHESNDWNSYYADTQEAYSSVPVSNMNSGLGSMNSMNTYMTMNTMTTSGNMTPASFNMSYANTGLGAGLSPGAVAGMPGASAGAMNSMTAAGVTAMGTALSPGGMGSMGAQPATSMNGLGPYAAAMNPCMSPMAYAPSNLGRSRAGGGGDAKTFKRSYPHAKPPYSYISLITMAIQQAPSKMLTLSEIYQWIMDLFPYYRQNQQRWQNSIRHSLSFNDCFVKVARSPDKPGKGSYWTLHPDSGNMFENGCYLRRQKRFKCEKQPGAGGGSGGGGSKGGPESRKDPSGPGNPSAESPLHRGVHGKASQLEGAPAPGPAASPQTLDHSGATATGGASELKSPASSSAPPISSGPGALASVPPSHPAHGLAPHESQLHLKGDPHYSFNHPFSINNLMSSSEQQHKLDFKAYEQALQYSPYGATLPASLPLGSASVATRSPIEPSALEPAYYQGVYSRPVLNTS
Setting: whole designed probe, mean of two concentrations, ends assumed
Shared flanks, not repeated: GTGAGCGGTGCCCATTGATGGGGAAC … TTTCACTGGGATCGTGGGGAC
Oligonucleotide	normalised bound fraction
AAGCCTCCAGATAGAAGCCTCTGGGCTTCTTGCAGGAGTGACTTTGAGCAGAGCCATGATGTATACATGAACCATTAAGAAGCACATTCTCAGAGTAATCTGGGGTGCACAATATGAAATCTCATACTGATCACATATGCCAGTGTGATTGCAGGGTTTATTTTTAGGAGTTTCATTTGGGGATCTTTTTCCA	-0.0537 ratio
CGGCCTGCTTGCGTGTGCAAGTCCACGGGCACACGTCCTGCCTTCATGTCTTGGACTTTAAACACCCTGGGCAGCTGGCCAGGCCTTGGTTTTGTTTGCAGAGTTGCCTAATCTAATATTGGTATTTAGCAAACAAAGCCCAAACAAGGGAGAAGTAGGCCCCTCTTGCCTCTTCTGAGCTTCCAGGGCTCTC	0.401 ratio
CAGCCTGCAGTGCGCTCAGTTAAACAATTCCAAATCAAGGAATTTTGTCTGATACAAGGAATTTGGGGTGTGTTTTCCTAACATGCACCCTGGGTAAATAGACTGCATTTCCTGACGGGGGGGGGGCCCAGCTGAAGCCAATATGCATTGCGGCCACAAGGTGGCGCGTCTGGGCCTGGCAAACCCCTGTGCT	0.263 ratio
AGAACTGTTTGTGTACGAACCGTTCAAATACAAAGCTAGCAACACAGCTCTCCTTCAGCCTCTACACACGTCCACCGGCTGCTCTTTTAATTCTGTTGACACAATAAGTGAGTCAGAGAAGGTGGGACAATGACCCTGATGGAGGATGGGAAAAGCTGTCTATACTCAAACACAAAACAAGAGTAAATGAAAA	0.289 ratio
TATCTGAGAAGTCTGATCCAGAGTTGATGAGCAGATAAAAAATGTTGAAAGGATCCACGCTCTTTCCATCTCTCTGCTTAGTCATCCTCACTGTGTTTGCTTTTCTTCAGTTTGTTACTTTTTTTTTTTTTTGAGATCGAGTTTCGCTCTTGTTACCCAGGCTGGAGTGCAATGGGGCGATCTCTGCTCACTG	0.306 ratio
GTGTGTGCGCGCGCGTGTGTGTGTGTTTTCTTAAGCCGGGCTATTCAAACCCTGCTGCAATTCTCCGGTAAACAATGTTACATGGGGCATAATGCAAATAAACGGATTCAATGATTCATGGTTCGCGCACTTTGCAGCCGGCCCGGTGGAGCAGCCAGTGCCGGATTTCTCCCTTTTTTTGCAGATCTGCAGA	0.433 ratio
ATAATCTGAGGTGGCGACTGGCCAGATAGCCTGCCCCTACTCACTCTGGCTATAAAATAAGCCTACAGTATCCACAAGGGGAAATACTAACAGTGTAATCTAGCACATCAAGGTGCAGTCAAAGAAGCCAGGTCCCCACTGATGAGATGAAGAAAATAACCACCTAAGTCTCAGGTCCCTGTATCTGCCTAAT	-0.0317 ratio
ATCTTCCCCCTCTTCCTTGCCCCACCAGCTCACCTACGGGGGTTATTTGCACAAAGGAAAATAAATAAAGCCGGCATTCGTTAACGCAGTTCACGCGCATACTGCTGTTTGCTCTGGATCTAACATGGTCCTTTGGCGAGGCGTGGCTCCGGGAGAGCAAAGCACCGTGTCAGGGCCATGATCCGGGGTGGCC	0.388 ratio

Series 2 — method: protein-binding microarray; form: double-stranded DNA, one strand shown; medium: in vitro; tested at: 940 nM top; setting: 60-bp whole probe; with: salmon DNA 0.4 mg/ml; relative to: random background probes; reading: higher = stronger binding; shared flanks, not repeated: GCCTAGCAC … GTCTTGATTCGCTTGACGCTGCTG
Target: Interferon regulatory factor 5, full length, phosphomimetic (IRF5, Homo sapiens, UniProt Q13568-2, residues 1-514, S451D/S453D/S456D/S462D)
Oligonucleotide	fitted relative affinity
GACGGTATGCTTCTCCTGACGTGCTAG	0.098 z-score
TTAGGTTTCGGGACTTGGTTAGTGCTA	7.38 z-score
TTAGGTTTCGCTATCGGTTAGTGCTAG	8.89 z-score
GACGGTTTCCTTCGCCTGACGTGCTAG	1.31 z-score
TTAGGTTCCGATTTCGGTTAGTGCTAG	2.44 z-score
TTAGTACTGGACACTGGGTTAGTGCTA	-0.445 z-score
GACGGTTTCCTATTCCTGACGTGCTAG	1.57 z-score
TGAACTAGCGGGTCTTGCAGTGTGCTA	-0.488 z-score

Further values, each from its own experiment
HLA class I histocompatibility antigen, A alpha chain allele A*25:01: HLA class I histocompatibility antigen, A alpha chain, allele A*25:01 (Homo sapiens, UniProt P04439)
P1: viral docking peptide; YKVKRRLVFGADD; partner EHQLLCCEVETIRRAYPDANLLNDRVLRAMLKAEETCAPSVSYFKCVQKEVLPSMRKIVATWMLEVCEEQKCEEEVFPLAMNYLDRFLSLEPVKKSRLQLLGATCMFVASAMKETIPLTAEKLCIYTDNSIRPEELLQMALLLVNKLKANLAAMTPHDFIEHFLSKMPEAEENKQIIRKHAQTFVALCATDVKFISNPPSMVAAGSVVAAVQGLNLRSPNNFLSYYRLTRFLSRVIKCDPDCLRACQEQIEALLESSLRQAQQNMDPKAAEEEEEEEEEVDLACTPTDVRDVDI
Substance	target	assay	system	conditions	how to read	endpoint	value
SLLERGQQLGV	HLA class I histocompatibility antigen, A alpha chain allele A*25:01	peptide-MHC binding	peptide	concentration not given	–	binding	inactive
P1 G10K	CCND1, cyclin fold, Cln2 fusion (human)	yeast growth competition, sequencing	yeast	strong parent motif	relative to: not given, higher = stronger binding	normalised enrichment score	1.34
WFLYVSQQI	HLA class I histocompatibility antigen, A alpha chain allele A*25:01	peptide-MHC binding	peptide	concentration not given	–	binding	inactive

Repeated from above (series 1):
Oligonucleotide	normalised bound fraction
CGGCCTGCTTGCGTGTGCAAGTCCACGGGCACACGTCCTGCCTTCATGTCTTGGACTTTAAACACCCTGGGCAGCTGGCCAGGCCTTGGTTTTGTTTGCAGAGTTGCCTAATCTAATATTGGTATTTAGCAAACAAAGCCCAAACAAGGGAGAAGTAGGCCCCTCTTGCCTCTTCTGAGCTTCCAGGGCTCTC	0.401 ratio
CAGCCTGCAGTGCGCTCAGTTAAACAATTCCAAATCAAGGAATTTTGTCTGATACAAGGAATTTGGGGTGTGTTTTCCTAACATGCACCCTGGGTAAATAGACTGCATTTCCTGACGGGGGGGGGGCCCAGCTGAAGCCAATATGCATTGCGGCCACAAGGTGGCGCGTCTGGGCCTGGCAAACCCCTGTGCT	0.263 ratio
